Measurements from different studies.
Lines come from different studies, so protocols differ. Values joined by “and” are separate records of one study, mostly repeats; a detail may differ. ± marks the error that the study gave.

CCc1c(-c2ccccc2)c(-c2ccccc2)nn1-c1ccccc1-c1cccc(OCC(=O)O)c1 — viability (mouse bone marrow macrophages; CCK-8; 1 µM, 4000 cells; relative to: untreated): 90.9% and 83.8% and 88.7% and 93.7% and 85.2% and 86.3%
NCCCCC(=O)O — host cell number (HCT-8 infected with Cryptosporidium parvum; Hoechst nuclei count; 1 mM, 24 h; relative to: PBS): 0.987 ± 0.056
Cn1cc2c(C(=O)O)ccc(NS(=O)(=O)c3ccc(OCC4CCC4)c(Cl)c3)c2n1 — apparent permeability (RRCK cells; passive permeability): 11 ×10⁻⁶ cm/s
NCCCCCN — host cell number (HCT-8 infected with Cryptosporidium parvum; Hoechst nuclei count; 1 mM, 24 h; relative to: PBS): 1 ± 0.05
CCCCCCCCCCCCCCCCCCOCC(O)CO (stereo not shown) — activity score (human iPSC-derived cardiomyocytes; MyBP-C/MYH ratio, plate-normalised SD score; concentration not given, primary screen; direction not given): 3.3
NCCCC(=O)O — host cell number (HCT-8 infected with Cryptosporidium parvum; Hoechst nuclei count; 1 mM, 24 h; relative to: PBS): 0.975 ± 0.052
O=S(=O)(NC1CCN(c2ncnc3c2nc(-c2ccccc2Cl)n3-c2ccc(Cl)cc2)CC1)c1ccc(F)c(F)c1 — permeability A to B (MDCK-MDR1; 10 µM, 1 h, pH 7.4, 37 °C): < 0.1%
C/C=C(/C)C(=O)OC[C@H]1[C@@H](Cc2ccc(C(F)(F)F)cc2)CO[C@@H]1c1ccccc1 — viability (HEK293/NF-κB-luc; CellTracker Green CMFDA; 20 µM, 4.5 h, serum-free medium; relative to: stimulated untreated cells): 85 ± 18%
CC(C)(c1ccc(O)cc1)c1ccc(O)cc1 — viable cells (HepG2 spheroids, dissociated; annexin V-FITC/PI flow cytometry; 0.01 µM, 96 h): 53.7 ± 2.99%
CC(C)C[C@H](NC(=O)C[C@H](O)[C@H](CC(C)C)NC(=O)[C@H](Cc1c[nH]cn1)NC(=O)CNC(=O)[C@@H](NC(=O)[C@H](C)NC(=O)[C@H](Cc1c[nH]c2ccccc12)NC(=O)[C@H](CCC(N)=O)NC(=O)[C@@H](Cc1ccccc1)NC(=O)COCCOCCNC(=O)CCC(C(=O)O)N1CCN(CC(=O)O)CCN(CC(=O)O)CC1)C(C)C)C(N)=O (stereo partly shown) [lutetium-177 labelled] — tissue uptake (female BALB/c nu/nu mice, muscle; intravenous, 50 pmol, 24 h): 0.009 ± 0.001 %ID/g
CC(C)n1nccc1-c1ncccc1COc1cccc(O)c1C=O — Papp (MDCK; permeability basolateral to apical; 1 µM, 90 min, pH 6.5 apical to 7.4 basolateral): 39 ×10⁻⁶ cm/s and 34.3 ×10⁻⁶ cm/s
CC(C)NCC(O)COc1cccc2ccccc12 (stereo not shown) — Papp B to A (MDCK-MDR1 cells; 5 µM, pH 7.4): 49 ×10⁻⁶ cm/s
O=C(O)CCCOc1ccc(F)cc1-c1cc(-c2ccccc2C(F)(F)F)n(-c2ccccc2)n1 — beat rate (human iPSC-derived cardiomyocytes; 200 µM): 51.2 ± 1 min⁻¹
CC(C)C[C@H](NC(=O)[C@H](CCCNC(=N)N)NC(=O)CNC(=O)CNC(=O)[C@H](CCCNC(=N)N)NC(=O)CNC(=O)CNC(=O)CNC(=O)c1ccc2c(c1)C(=O)OC21c2ccc(O)cc2Oc2cc(O)ccc21)C(=O)N[C@@H](CO)C(=O)N[C@@H](Cc1ccc(O)cc1)C(=O)N[C@@H](CO)C(=O)N[C@@H](CCCNC(=N)N)C(=O)N[C@@H](CCCNC(=N)N)C(=O)N[C@@H](CCCNC(=N)N)C(=O)N[C@@H](Cc1ccccc1)C(=O)N[C@@H](CO)C(=O)N[C@H](C(=O)N[C@@H](CO)C(=O)N[C@H](C(=O)NCC(=O)N[C@@H](CCCNC(=N)N)C(N)=O)[C@@H](C)O)[C@@H](C)O — transport ratio (hCMEC/D3 monolayers; BBB permeability, Transwell, refers to: CF-labelled compound; EGM-2 medium; concentration not given, 2 h, apical to basal; relative to: fluorescence added apically): 8.9%
COc1cc(CNC(=O)c2ccccc2C)cc(Br)c1OC — CC50 (Vero-E6; CCK-8; 24 h): > 800 µM
CCOc1c([C@H](C)n2nc(C)c3c(N)ncnc32)cc(Cl)c(F)c1[C@@H]1CNC(=O)C1 — AUC(0-tau) (human, all cohorts, plasma; oral, 20 mg, day 15, geometric mean): 12.6 µM·h
C[C@@H](c1ncncc1F)[C@](O)(Cn1cncn1)c1ccc(F)cc1F — mass recovery (MDCK; 1 µM, 90 min, pH 6.5 apical, 7.4 basolateral, apical to basolateral): 101 ± 15%
Cn1cc(-c2ccc(-c3cncc(Cl)c3N3CCC4(CCNC4=O)CC3)cc2)cn1 — log2 fold change (COLO 205; gene expression, microarray, refers to: BHLHE41 mRNA; concentration not given, 6 h; relative to: untreated cells): 3.89
O=C(O)CC[C@H](NC(=O)N[C@@H](CCCCNC(=O)[C@H](Cc1ccc2ccccc2c1)NC(=O)CCCCCNC(=O)CN1CCN(CC(=O)O)CCN(CC(=O)O)CCN(CC(=O)O)CC1)C(=O)O)C(=O)O [gallium-68 labelled] — tissue uptake (gamma counting; mouse, 22Rv1 xenograft, liver; intravenous, 3.7 MBq, 2 h): 6.14 ± 1.54 %ID/g
COc1cc(/C=C/C(=O)CC(=O)/C=C/c2ccc(O)c(OC)c2)ccc1O — activity score (human iPSC-derived cardiomyocytes; MyBP-C/MYH ratio, plate-normalised SD score; concentration not given, primary screen; direction not given): 4.4
COc1cc(C=NNC(=O)c2nc3ccccc3s2)ccc1O — cytotoxicity (BJ-1 fibroblasts; MTT; 100 µM, 48 h): 10.8%
Cc1noc(C)c1Cn1cc(N2C(=O)CN(Cc3cccc(O)c3)C2=O)cn1 — aberrant cells with gaps (human blood lymphocytes; 494.3 µg/mL, 3 h): 1.5%
CN1CCN(c2ncc(-c3ccc4nncc(Nc5ncc(Cl)cn5)c4c3)cn2)CC1 — TC50 (B10R mouse macrophages; cytotoxicity): 3.5 µM
CCc1cc(/C(C)=N/OCc2ccc(C3CCCCC3)c(C(F)(F)F)c2)ccc1CN1CC(C(=O)O)C1 — Papp (A to B) (MDCK low-efflux): 14 ×10⁻⁶ cm/s
Cc1cnc(Nc2ccc(OCCN3CCCC3)cc2)nc1Nc1cccc(S(=O)(=O)NC(C)(C)C)c1 — mass recovery (MDCK; 1 µM, 90 min, pH 7.4 apical, 7.4 basolateral, basolateral to apical): 78 ± 3%
CC(=O)Nc1ccc(O)cc1 — viability (THLE-2, 3D culture; MTT; 100 µM, 72 h): 61.6%
Cc1cc(C(=O)NC(C)(C)COc2cccc3c2C(N)=NS(=O)(=O)N3)cc(C)n1 — cytotoxicity (human peripheral blood lymphocytes; CBPI, micronucleus test; 0.6 µg/mL, 4 h, with rat liver S9; relative to: vehicle): 8%
Nc1cc[nH]c(=O)n1 — host cell number (HCT-8 infected with Cryptosporidium parvum; Hoechst nuclei count; 1 mM, 24 h; relative to: PBS): 1.01 ± 0.075
COc1cc2ncnc(Nc3ccc(Oc4ccccc4)cc3C)c2cc1OC.O=C(O)C(F)(F)F — viability (A-375 (BRAF V600E); 0.1 µM, 72 h): 1.11 fraction of control and 0.877 fraction of control
CN(C)CC(=O)O — host cell number (HCT-8 infected with Cryptosporidium parvum; Hoechst nuclei count; 1 mM, 24 h; relative to: PBS): 0.995 ± 0.073
O=C(CS(=O)(=O)O)Nc1ccc(N2CCOCC2)c(Br)c1 — Papp (MDCK-MDR1; MDR1 inhibited): 0.005 ×10⁻⁶ cm/s
Cc1cccc(C(=O)O)c1 — host cell number (HCT-8 infected with Cryptosporidium parvum; Hoechst nuclei count; 1 mM, 24 h; relative to: PBS): 0.982 ± 0.048
Cc1ccc(Nc2cnnc3ccc(-c4ccc(N5CCCN(C)CC5)cc4)cc23)cn1 — TC50 (B10R mouse macrophages; cytotoxicity): > 10 µM
CC(C)C[C@H](NC(=O)C[C@H](O)[C@H](CC(C)C)NC(=O)[C@H](Cc1c[nH]cn1)NC(=O)CNC(=O)[C@@H](NC(=O)[C@H](C)NC(=O)[C@H](Cc1c[nH]c2ccccc12)NC(=O)[C@H](CCC(N)=O)NC(=O)[C@@H](Cc1ccccc1)NC(=O)COCCOCCNC(=O)CCC(C(=O)O)N1CCN(CC(=O)O)CCN(CC(=O)O)CCN(CC(=O)O)CC1)C(C)C)C(N)=O (stereo partly shown) [lutetium-177 labelled] — tissue uptake (BALB/c nu/nu mice, kidneys; intravenous, 250 pmol, 1 h, together with: PA 300 µg): 5.2 ± 0.7 %ID/g
Cn1cncc1[C@@](N)(c1ccc(Cl)cc1)c1ccc2c(c1)c(-c1cccc(Cl)c1)cc(=O)n2C — Papp (C2BBe1 (Caco-2 clone)): 13.3 ×10⁻⁶ cm/s
CC(=O)Nc1ccc(O)cc1 — mass recovery (MDCK; 1 µM, 90 min, pH 7.4 apical, 7.4 basolateral, basolateral to apical): 83 ± 10%
O=C(O)c1ccc(NS(=O)(=O)c2ccc(Cl)c(Cl)c2)c2ncccc12 — apparent permeability (RRCK cells; passive permeability): 15 ×10⁻⁶ cm/s
CC(=O)Nc1cccc(-n2c(=O)n(C3CC3)c(=O)c3c(Nc4ccc(I)cc4F)n(C)c(=O)c(C)c32)c1 — viability (MeWo; resazurin; 100.00 nM, 72 h, unit not given; relative to: DMSO): 0.5 and 0.553
C/C=C(/C)C(=O)OC[C@H]1[C@@H](Cc2ccc(C(F)(F)F)cc2)CO[C@@H]1c1ccc(OC)c(OC)c1 — viability (HEK293/NF-κB-luc; CellTracker Green CMFDA; 20 µM, 4.5 h, serum-free medium; relative to: stimulated untreated cells): 84 ± 17%
O=C(O)/C=C/c1c[nH]cn1 — host cell number (HCT-8 infected with Cryptosporidium parvum; Hoechst nuclei count; 1 mM, 24 h; relative to: PBS): 1.02 ± 0.07
CC(C)=CCC[C@@]1(C)C(CC[C@H]2[C@]3(C)CC[C@H](O)C(C)(C)O[C@H]3CC[C@@]2(C)O)=C(C)CC[C@H]1O — IC50 (KB-V1 (P-gp overexpressing); cell viability, MTT; DMEM with 10% bovine serum; 72 h): > 50 µM
COc1cc(C=NNC(=O)c2nc3ccccc3s2)ccc1OS(C)(=O)=O — cytotoxicity (BJ-1 fibroblasts; MTT; 100 µM, 48 h): 33.9%
C[C@H]1[C@H](OC(=O)CCC(=O)O)O[C@@H]2O[C@@]3(C)CC[C@H]4[C@H](C)CC[C@@H]1[C@@]24OO3 — highest non-toxic concentration (human iPSC-derived cardiomyocytes; cell viability; 72 h): > 10 µM
CCn1c(=O)c2c(nc(/C=C/c3ccc(OC)c(OC)c3)n2C)n(CC)c1=O — Papp (MDCK; permeability basolateral to apical; 1 µM, 90 min, pH 6.5 apical to 7.4 basolateral): 31.2 ×10⁻⁶ cm/s and 40.6 ×10⁻⁶ cm/s
C[C@@H]1COCCN1c1nc(-c2cnc(N)s2)nc2c1C[C@@H]1COCCN21 — Papp B to A (MDCK; 1 µM, 20 (unit not given)): 19.6 ×10⁻⁶ cm/s
CCCC(CCC)NC(=O)c1ccc2c(c1)OCO2 — cells with aberrations (CHO-WBL; 1.67 mg/mL, 3 h, with rat liver S9): 0%
CC(=O)Oc1ccccc1C(=O)O — beat rate (human iPSC-derived cardiomyocytes; 0.1 µM): 46.2 ± 0.7 min⁻¹
CS(=O)(=O)Oc1ccc(C=NNC(=O)c2nc3ccccc3s2)cc1 — cytotoxicity (BJ-1 fibroblasts; MTT; 100 µM, 48 h): 62.3%
NCCS(=O)(=O)O — host cell number (HCT-8 infected with Cryptosporidium parvum; Hoechst nuclei count; 1 mM, 24 h; relative to: PBS): 0.998 ± 0.039

Some of these lines once more:
O=C(O)/C=C/c1c[nH]cn1 — host cell number (HCT-8 infected with Cryptosporidium parvum; Hoechst nuclei count; 1 mM, 24 h; relative to: PBS): 1.02 ± 0.07
Cn1cncc1[C@@](N)(c1ccc(Cl)cc1)c1ccc2c(c1)c(-c1cccc(Cl)c1)cc(=O)n2C — Papp (C2BBe1 (Caco-2 clone)): 13.3 ×10⁻⁶ cm/s
CC(C)NCC(O)COc1cccc2ccccc12 (stereo not shown) — Papp B to A (MDCK-MDR1 cells; 5 µM, pH 7.4): 49 ×10⁻⁶ cm/s
NCCCCCN — host cell number (HCT-8 infected with Cryptosporidium parvum; Hoechst nuclei count; 1 mM, 24 h; relative to: PBS): 1 ± 0.05
